Published values of several laboratories.
Each line is one published result; not all experiments were run side by side. “And” joins repeats or separate records; there may be more than shown. ± marks the error that the study gave. Converted amounts (≈) assume the structure as drawn.

Structure (SMILES)	target or system	test	test system	conditions	scale	quantity	result
[O-][N+]1=C(Cc2ccccc2)C2=NCCCN2c2ccccc21	Clostridioides difficile	microbial growth	–	–	–	MIC90	16 µg/mL
CC[C@H](C)CCCCC(=O)N[C@@H](CCN)C(=O)N[C@H](C(=O)N[C@@H](CCN)C(=O)N[C@H]1CCNC(=O)[C@H]([C@@H](C)O)NC(=O)[C@H](CCN)NC(=O)[C@H](CCN)NC(=O)[C@H](CC(C)C)NC(=O)[C@@H](CC(C)C)NC(=O)[C@H](CCN)NC1=O)[C@@H](C)O	Escherichia coli	daily serial passaging	ATCC 8739	highest sub-MIC, 44 days	reference: initial MIC	MIC fold change	4.21
O=S(=O)(c1cccc(-c2ccc3ncnc(Nc4ccc(OCc5cccc(F)c5)c(Cl)c4)c3c2)c1)N1CCCCC1	Trypanosoma cruzi	intracellular amastigote growth, β-galactosidase CPRG	3T3, Tulahuen, β-galactosidase-expressing	96 h	–	EC50	> 50 µM
CC[C@H](C)[C@H](NC(=O)[C@H](CCCCN)NC(=O)[C@H](CC(=O)O)NC(=O)[C@H](CC(C)C)NC(=O)[C@@H](NC(=O)[C@H](CC(N)=O)NC(=O)[C@H](CC(C)C)NC(=O)[C@@H](NC(=O)[C@H](Cc1ccccc1)NC(=O)[C@H](CCCCN)NC(=O)[C@H](CCCCN)NC(=O)CNC(=O)[C@H](C)NC(=O)[C@H](CC(N)=O)NC(=O)[C@H](CCCCN)NC(=O)[C@H](Cc1ccccc1)NC(=O)[C@H](CC(N)=O)NC(=O)[C@H](CCC(=O)O)NC(=O)[C@H](Cc1c[nH]c2ccccc12)NC(=O)[C@H](CC(C)C)NC(=O)[C@@H](N)CO)[C@@H](C)CC)[C@@H](C)CC)C(=O)N[C@@H](CCCNC(=N)N)C(=O)N[C@H]1CSSC[C@@H](C(=O)N[C@@H](CCCNC(=N)N)C(=O)N[C@H](C(=O)O)[C@@H](C)O)NC(=O)CNC(=O)CNC(=O)[C@H](C)NC(=O)[C@H](C(C)C)NC(=O)[C@H](CCCNC(=N)N)NC1=O	Gram-positive bacteria	–	–	–	–	geometric mean MIC	25.4 µM
CC1COC2=C1C(=O)C(=O)c1c2ccc2c1C(OC(=O)CNC(=O)CN)CCC2(C)C (mixture of isomers)	Cutibacterium acnes	–	–	10 µmol/mL, 48 h, anaerobic, 10 µL on 6 mm disc	–	inhibition zone diameter	14.5 ± 0.9 mm
NCCO.O=C(O)C(Cl)Cl	Solanum nigrum	herbicidal activity	–	15 mg/mL, 21 days, pre-emergence greenhouse	–	inhibition	0%
CN(C)c1nc(NCc2c(F)cccc2C(F)(F)F)c(/N=N/c2ccc(Cl)cc2)c(N(C)C)n1	Ostrinia furnacalis	leaf dipping	–	500 mg/L, 96 h	–	mortality	100%
CC[C@H](C)[C@@H]1NC(=O)[C@H](CO)NC(=O)CC(CCCCN)NC(=O)[C@@H]2CSSC[C@@H](C(=O)N[C@@H](Cc3ccc(O)cc3)C(N)=O)NC(=O)[C@H](CCCCN)NC(=O)[C@@H]3CSSC[C@H](NC(=O)[C@H](CCCNC(=N)N)NC(=O)CC(CC(C)C)NC(=O)[C@H](CC(=O)O)NC(=O)[C@H](CC(=O)O)NC(=O)[C@H](CCC(=O)O)NC(=O)[C@H](CC(N)=O)NC(=O)[C@H](Cc4c[nH]c5ccccc45)NC(=O)[C@@H]4CCCN4C(=O)CNC(=O)[C@H](CC(N)=O)NC(=O)[C@@H](NC(=O)CNC(=O)[C@H](Cc4ccccc4)NC(=O)CN)CSSC[C@H](NC(=O)[C@H](Cc4ccc(O)cc4)NC(=O)CNC(=O)CNC(=O)[C@H](CCCCN)NC(=O)[C@H](Cc4ccc(O)cc4)NC(=O)CNC(=O)[C@H](CCCCN)NC1=O)C(=O)N[C@@H](C)C(=O)N[C@@H](CCCCN)C(=O)NCC(=O)NCC(=O)N[C@@H](Cc1ccccc1)C(=O)N[C@@H](C(C)C)C(=O)N3)C(=O)N[C@@H](Cc1c[nH]cn1)C(=O)NC(CC(N)=O)CC(=O)N[C@@H](Cc1c[nH]cn1)C(=O)N2 (stereo partly drawn)	Streptococcus pneumoniae	–	D39	24 h, 37 °C, 99.9% killing	–	MBC	8 µM (≈ 35.6 µg/mL)
Cc1cc(C(=O)Nc2nc3cccc(C)c3n2[C@H]2CCCCN(C(=O)/C=C/CN(C)C)C2)ccn1	Trypanosoma brucei brucei	–	2T1 wild type	0.09259 µM	–	survival	-0.1% and -0.09% and 0.14% and 0.12% and 0.65% and 0.34%
CC(C)[C@H]1NC(=O)[C@H](Cc2ccccc2)NC(=O)[C@@H](C(C)C)NC(=O)[C@@H](C)NC(=O)[C@H](CO)NC(=O)[C@@H](Cc2c(-c3ccc(-c4ccccc4)c4ccccc34)[nH]c3ccccc23)NC(=O)[C@@H](CO)NC1=O	Mycobacterium marinum	–	–	–	–	MIC90	> 100 µM
CCOC(=O)C1(Cc2cccc(C)c2)Oc2cc(F)ccc2N(Cc2cccc(C)c2)C1=O (stereo not drawn)	Setaria viridis	fresh weight, greenhouse postemergence	–	postemergence, 150 g ai/ha, 21 days	–	inhibition	37.4 ± 1.07%
O=C1NC2(CC2)COc2ncc(F)cc2[C@H]2COCCN2c2ccn3ncc1c3n2	–	–	Sprague-Dawley rat, male, kidneys	oral, 20 mg/kg/day, 4 weeks	–	organ weight	3.2 ± 0.533 g

Some of these lines once more:
Structure (SMILES)	target or system	test	test system	conditions	scale	quantity	result
NCCO.O=C(O)C(Cl)Cl	Solanum nigrum	herbicidal activity	–	15 mg/mL, 21 days, pre-emergence greenhouse	–	inhibition	0%
